Measured values collected from several papers.
Compare with care: the assays were run in different laboratories. ± gives the spread as reported.
Cell line: HT-29

Compound | test | conditions | scale | quantity | value
Cc1cc2nc(NC(=O)C3CC3)sc2c(C)c1Oc1ccc(F)c(NC(=O)Cc2cccc(C(F)(F)F)c2)c1 | necroptosis, CellTiter-Glo | together with: TNF, SMAC mimetic and zVAD (TSZ) | – | EC50 | 145 ± 10 nM
CO[C@@H]1[C@@H](O[C@@H]2O[C@H](C)[C@@H](O[C@H]3C[C@@](C)(O)[C@@H](OC(=O)Cc4ccc(C(C)(C)C)cc4)[C@H](C)O3)[C@H](N(C)C)[C@H]2O)[C@@H](CC=O)C[C@@H](C)[C@@H](O[C@H]2CC[C@H](N(C)C)[C@@H](C)O2)/C=C/C=C/C[C@@H](C)OC(=O)C[C@H]1O | cell growth or viability, CCK-8 | 72 h | – | IC50 | 1640 nM
C=C1CC(OC(=O)C(C)(O)CCl)C2C(=C)C(=O)OC2C2C1CC(O)C2(O)CCl (centres unmarked) | PI flow cytometry | IC50, 48 h | – | cells in G1 phase | 59.4 ± 2.3%
COc1cc(CNC(=O)C[C@H](C)CCC=C(C)C)ccc1OCc1cn(-c2cccc([N+](=O)[O-])c2)nn1 | SRB | 10 µM, 48 h | – | growth percent | 100%
CC(=O)OC[C@H]1O[C@@H](Sc2sc(C(=O)c3ccc(C)cc3)c(N)c2-c2nc3ccccc3s2)[C@H](OC(C)=O)[C@@H](OC(C)=O)[C@@H]1OC(C)=O | SRB | 10 µM, 48 h | reference: untreated | growth | 59.5%
COc1cc(CNC(=O)C[C@H](C)CCC=C(C)C)ccc1OCc1cn(-c2ccc(C#N)cc2)nn1 | SRB | 10 µM, 48 h | – | growth percent | 77.5%
COc1cc(Oc2ccc(F)c(NC(=O)Cc3cccc(C(F)(F)F)c3)c2)cc2sc(NC(=O)C3CC3)nc12 | necroptosis, CellTiter-Glo | together with: TNF, SMAC mimetic and zVAD (TSZ) | – | EC50 | > 10000 nM
O=C(/C=C/c1ccc(O)c2oc(-c3ccc(O)c(O)c3)cc12)O[C@H](Cc1ccc(O)c(O)c1)C(=O)O | agonist, dynamic mass redistribution | – | – | maximal DMR response | > 1500 pm
CCCC(C)NC(=O)C(Nc1ccccc1C(=O)c1ccccc1)c1cn(C)c2ccccc12 (centres unmarked) | cell growth or viability, MTT | 72 h | – | GI50 | 6.4 µM
O=C(Cc1cccc(C(F)(F)F)c1)Nc1cc(Oc2c(Cl)cc3nc(NC(=O)C4CC4)sc3c2Cl)ccc1F | necroptosis, CellTiter-Glo | together with: TNF, SMAC mimetic and zVAD (TSZ) | – | EC50 | 180 ± 40 nM
O=C(/C=C(O)/C=C/c1cccs1)/C=C/c1cccs1 | DCFH-DA, SRB-normalized | 10 µM | reference: untreated cells | intracellular ROS | 135 ± 10.4%
COc1cc2ncc3c(c2cc1-c1cnn(C)c1)n(-c1ccc(C#N)cc1F)c(=O)n3C | ATR-CHK1 signaling | concentration not given, together with: hydroxyurea | – | CHK1 phosphorylation | no effect
O=C1CCNC(=O)[C@@H]2CCCN2C(=O)CCNC(=O)[C@H](Cc2c[nH]cn2)NC(=O)[C@H](Cc2c[nH]cn2)N1 | MTT | 10 µg/mL, 6 h | – | viability | 29.3%
COc1ccc(NC(=O)O[C@H]2[C@H](C)O[C@@H](O[C@H]3[C@H](N(C)C)[C@@H](O)[C@H](O[C@H]4[C@@H](CC=O)C[C@@H](C)[C@@H](O[C@H]5CC[C@H](N(C)C)[C@@H](C)O5)/C=C/C=C/C[C@@H](C)OC(=O)C[C@@H](O)[C@@H]4OC)O[C@@H]3C)C[C@@]2(C)O)cc1 | cell growth or viability, CCK-8 | 72 h | – | IC50 | > 50000 nM
CC12CCCC(n3cc(C(=O)N4CCCC(N)C4)nn3)(C1)C1CC(C)(C)C1CC2 (centres unmarked) | annexin V/PI flow cytometry | 5 µM, 48 h | – | apoptotic cells | 26.7%
NCCC(=O)N[C@@H](Cc1c[nH]cn1)C(=O)N[C@@H](Cc1c[nH]cn1)C(=O)NCCC(=O)O | MTT | 10 µg/mL, 6 h | – | viability | 35%
O=C(Cc1cccc(C(F)(F)F)c1)Nc1cc(Oc2cc(C(=O)NC3CC3)c3nc(NC(=O)C4CC4)sc3c2)ccc1F | necroptosis, CellTiter-Glo | together with: TNF, SMAC mimetic and zVAD (TSZ) | – | EC50 | > 10000 nM
COc1cc(CNC(=O)C[C@H](C)CCC=C(C)C)ccc1OCc1cn(-c2cccc(Cl)c2)nn1 | SRB | 10 µM, 48 h | – | growth percent | 97.3%
CO[C@@H]1[C@@H](O[C@@H]2O[C@H](C)[C@@H](O[C@H]3C[C@@](C)(O)[C@@H](OC(=O)/C=C/c4ccc(C(F)(F)F)cc4)[C@H](C)O3)[C@H](N(C)C)[C@H]2O)[C@@H](CC=O)C[C@@H](C)[C@@H](O[C@H]2CC[C@H](N(C)C)[C@@H](C)O2)/C=C/C=C/C[C@@H](C)OC(=O)C[C@H]1O | cell growth or viability, CCK-8 | 72 h | – | IC50 | 2320 nM

Compound | test | conditions | scale | quantity | value
O=C(Cc1cccc(C(F)(F)F)c1)Nc1cc(Oc2c(F)cc3nc(NC(=O)C4CC4)sc3c2F)ccc1F | necroptosis, CellTiter-Glo | together with: TNF, SMAC mimetic and zVAD (TSZ) | – | EC50 | 9 ± 2 nM
O=C(O)CCNC(=O)[C@H](Cc1c[nH]cn1)NC(=O)[C@H](Cc1c[nH]cn1)NC(=O)CCNC(=O)[C@@H]1CCCN1 | MTT | 10 µg/mL, 6 h | – | viability | 34.9%
CC(=O)OC[C@H]1O[C@@H](Sc2sc(C(=O)c3ccc(Br)cc3)c(N)c2-c2nc3ccccc3s2)[C@H](OC(C)=O)[C@@H](OC(C)=O)[C@@H]1OC(C)=O | SRB | 10 µM, 48 h | reference: untreated | growth | 59.8%
Cc1ccc(C(C)C)cc1.O=C([N-]c1nc2ccccc2s1)c1cnccn1.[Cl-].[Ru+2] | cytotoxicity, MTT | – | reference: KMST-6 over HT-29 | selectivity index | > 2
CC(O)c1c(Oc2ccc(F)c(NC(=O)Cc3cccc(C(F)(F)F)c3)c2)ccc2nc(NC(=O)C3CC3)sc12 (centres unmarked) | necroptosis, CellTiter-Glo | together with: TNF, SMAC mimetic and zVAD (TSZ) | – | EC50 | 45 ± 9 nM
CC[C@H](C)[C@@H]1NC(=O)[C@@H](CCC(N)=O)NC(=O)CNC(=O)[C@H](Cc2ccc(O)cc2)N=C[C@H](CC(C)C)NC(=O)[C@H](C(C)C)NC(=O)[C@H](CO)NC1=O | cytotoxicity | 3 days | – | ED50 | > 20 µg/mL
NCCC(=O)N[C@@H](Cc1c[nH]cn1)C(=O)O | MTT | 10 µg/mL, 6 h | – | viability | 27.8%
O=C(Cc1cccc(C(F)(F)F)c1)Nc1cc(Oc2ccc3nc(NC(=O)C4CC4)sc3c2CO)ccc1F | necroptosis, CellTiter-Glo | together with: TNF, SMAC mimetic and zVAD (TSZ) | – | EC50 | 34 ± 1 nM
CC/C=C\C/C=C\C/C=C\C/C=C\C/C=C\C/C=C\CCC(=O)Nc1ccn(C2OC(CO)C(O)C2(F)F)c(=O)n1 (centres unmarked) | NCI60 screen | – | – | TGI | 17.6 µM
NS(=O)(=O)c1ccc(NC(=O)NN[C@@H]2O[C@H](CO)[C@H](O)[C@H](O)[C@H]2O)cc1 | cell growth or viability, MTT | 96 h | – | IC50 | > 100000 nM
COc1cc(CNC(=O)C[C@H](C)CCC=C(C)C)ccc1OCc1cn(-c2cccc(C(F)(F)F)c2)nn1 | SRB | 10 µM, 48 h | – | growth percent | 96.6%
O=C1CCNC(=O)[C@H](Cc2c[nH]cn2)NC(=O)[C@@H]2CCCN2C(=O)[C@H](Cc2c[nH]cn2)NC(=O)CCN1 | LDH release | 10 µg/mL, 6 h, 1% FBS | – | viability | 71.6%
COc1cc(CNC(=O)C[C@H](C)CCC=C(C)C)ccc1OCc1cn(-c2ccc(Br)cc2)nn1 | SRB | 10 µM, 48 h | – | growth percent | 94.4%
COc1ccc(C2=Nn3c(NN=C4C(=O)N(C)c5ccc(Br)cc54)nnc3SC2)cc1 | cell growth or viability, SRB | 10 µM | – | inhibition | 15%
Cc1nn(-c2ccc(S(=O)(=O)N[C@@H](CO)CC(C)C)cc2)c2nn3nnnc3nc12 | PI/Hoechst staining | 0.5 µM, 24 h | – | apoptotic cells | 21.5 ± 2.12%
COc1cc(CNC(=O)C[C@H](C)CCC=C(C)C)ccc1OCc1cn(-c2ccccc2F)nn1 | SRB | 10 µM, 48 h | – | growth percent | 97.4%
O=C(Cc1cccc(C(F)(F)F)c1)Nc1cc(Oc2cc(Cl)c3nc(NC(=O)C4CC4)sc3c2)ccc1F | necroptosis, CellTiter-Glo | together with: TNF, SMAC mimetic and zVAD (TSZ) | – | EC50 | > 10000 nM
CC(=C(c1ccc(O)cc1)c1ccc(Cl)cc1)c1ccc(Cl)cc1 | cell growth or viability, SRB | – | – | GI50 | 0.85 µM
COc1cc(CNC(=O)C[C@H](C)CCC=C(C)C)ccc1OCc1cn(-c2ccccc2)nn1 | SRB | 10 µM, 48 h | – | growth percent | 99.5%
